# Experimental data of several laboratories.
# A part holds a random share of what one study measured. Positions count from the first letter of the parent shown.

# Set 1 — method: RNA Bind-n-Seq; molecule type: RNA; medium: in vitro; tested at: 365 nM; relative to: no-protein control; direction: higher = stronger binding
# Target: RNA binding protein fox-1 homolog 2, RRM domain, GST-SBP tag (RBFOX2, Homo sapiens, UniProt O43251-10, residues 100-194)
# Setting: natural RNA segment, single round, ends assumed
# Constant ends, left off below: GGGAGUUCUACAGUCCGACGAUC … UGGAAUUCUCGGGUGCCAA
# Target sequence (chain): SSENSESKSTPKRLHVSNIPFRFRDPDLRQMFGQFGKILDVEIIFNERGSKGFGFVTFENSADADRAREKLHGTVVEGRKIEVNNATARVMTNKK
Sequence,RBNS enrichment (R)
CUGUUCCAGACUGGACAUCCACUGUCUUUCCUGCUUUCGCGUCAGAUUUACAGCUUAUGCUAGGCCCACCCAACUGGACAAGGCUGUCUCCUGUCUUCUACUACCCUGGC,0.365
UUGCCCUCCAAGUUCUCUCUCUCAUACACACACACACCCUUGCUCCAGAAUCACCAGACACCUCCAUGGCUCCAGCUAUGGGAACAGCUGCAUUGGGGCUGCCUUUCUGU,0.727
CUGUGCAGGAAAAAGGUUUUAUUCUCUCCUGGCAUACAUUAGAAUGUCAGAUGCUUGCAUCCAUGUGGACCACGAUGGGCCUCUAAAAAUUGGUGGGCAGGGGGUUUGCU,1.44
UCUUUUAGGCUUUGUUAACUGAAUGCUCCUCUCCUCCUCCACUGCAUAGUUAAAGCAUGUGUUCACACUGUGUAAACAUUCACAGAAGACUUUUCCUCGUGUGUUGUUGA,1.02
GGACUUGCAGCACAAAUGUCACUUCUGUCUCCCUUUUCAGUGGUAGCACGGAGGAGGAGGUGCUGCGUUGGAGGGAGGGGAUCCUCCAGGAGCUCUCUGGAGCCCAUCUA,0.604
CAGGGUCCUGCUAUUUCCCAAGCUGGAGUGCAGUGGUGCGAUCAUGGCUCACUGCAGCCUCGAACUCCUGGGCUCAAGCAAUCCUCCUGAGUGAUCCCAUUUCUUAAUCA,0.245
UGGCGGCCGGGGUGGGGGUUGAGGACGUGGGGUGAGGGGAGGCAGCUGCAGACAUGAGCCUUCCCGCCUCAACACAUCCUCCGUAGAAGGGACCCCCUCCCUGCUCCUGG,0.76
GCCUCACUGUCCCAAUUCCCAAAUUUUUCUUACAGAGAUUCAGGGCCUUCAAGAGUCUUCUUAAUGUUCUCCCACAGGGCUCUUUCUGAGUGCCCUAUAAUCCCUCCCCC,0.496
AGCCUCACCCUCUCCACCUUUCAGCCUCCAGAGACUUUGGGGAGGGGGUUAAUCAACCCCGCGUGUUUCUGUUUUAUUGAAAAAGCAGACAUUUUUUUUUAAAUGGUCAC,0.438
GAGUGUGACCAAAAGUUACAUGUUUGCACCUUUCUAGUUGAAAAUAAAGUGUAUAUUUUUUCUAUAAGGGCUUGGUUAUUCAUUUAUCCUUCUAAACAUUUCUGAGUUUU,1.06
GACUGGGAGGGCCCACUUCAGGGUUCUCCUCUCCCCUCUAAGGCCGAAGAAGGGUCCUUCCCUCUCCCCAAGACUUGGUGUCCUUUCCCUCCACUCCUUCCUGCCACCUG,0.364
CUAUUUAAAAAAUAGGAAGCUGCUUUUAUAUUUAAUAAUAAAAGAAGUGCACAAGCUGCCACGUGUGGUCAUGGGAAAACUUGUUUUUGGGGCGUGGGCAACAACAGUAG,0.418

# Set 2 — method: RNA Bind-n-Seq; molecule type: RNA; medium: in vitro; tested at: 100 nM; relative to: input RNA pool; direction: higher = stronger binding
# Target: RING finger protein unkempt homolog, zinc fingers 1-6, SBP tag (UNK, Homo sapiens, UniProt Q9C0B0, residues 30-357)
# Chain of UniProt Q9C0B0 (30-357, looked up): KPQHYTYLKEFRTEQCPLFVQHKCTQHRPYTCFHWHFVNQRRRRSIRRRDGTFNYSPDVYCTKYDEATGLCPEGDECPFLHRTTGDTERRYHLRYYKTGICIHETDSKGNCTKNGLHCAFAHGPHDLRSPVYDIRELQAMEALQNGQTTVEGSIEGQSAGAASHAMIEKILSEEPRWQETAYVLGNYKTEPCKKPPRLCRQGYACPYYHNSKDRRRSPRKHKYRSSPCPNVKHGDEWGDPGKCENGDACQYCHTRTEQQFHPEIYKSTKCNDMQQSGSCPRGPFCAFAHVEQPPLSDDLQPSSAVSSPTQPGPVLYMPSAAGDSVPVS
# Setting: RNA with constant flanks, vertebrate orthologous sites, ends assumed
# Constant ends, left off below: GGGAGUUCUACAGUCCGACGAUC … CAACAGAGGAUUGAGCAUCA
Sequence,bound/input enrichment [ratio]
CUCUAUGGGCCUCGCAGAGUUGAAAUAAUGGAAGAGGAAAGUGAACAGUAAUCUUCAUUUUAGUAUUUAUGCUUAGAUGUGAAAAUAAAUGUUAUUUGUUGAUCAUUUCUAUAAUCCAGA,0.477
GGGGCGGCCGGUGGGGGAAUCCCAUGCCCUGGCCGGCCACCCCUCCCUGCUACCCGCUCCUAGUUUUUUUUUUUUUUAACCACCAUGUGAUUAAGGUCGGCGCUGCCUCCCCCGACCCGC,5.88
UCCCAGCACUUUGAUAAAAAGUGUGGACUGGCUGCUCGUAUUUUCCUUAUUCUUUUUAAUUAGUUUUAUUAUGUACGCUACCAUUCGAACGGAGAGUAUUCGGUGGCUAAUUCCGGGACA,1.69
CCCUCUGAACCCCAUAUCUUCCGUCUCAUAGUGCAGAAGUAGUCUUUUCAAUUAUAUUAUUCGUGGACUCGUUUUAAUUUUAGGGAAACUUUUCAGUACAGAUACUGUGAGCUUACAUGG,3.1
CUGCAGAUUCUCUCAUAGGGAGAGCUGCACACAUUGCUGUUCUUGAUUCAGAAAUAUUUUUAGAAAAAUUCUUUCUUGUUGCUGCCCUGAAAUAUUUUCAGUAGAGAAUAGCAUUCUAAG,0.268
CCCUCUGAACCCCAUAUCUUCUGUUUCAUAAUGCAGAAGUAUUCUUUUCAAUUAUAUUGUUAGUGGACUUCUUUUAAUUUUAGAGAAACUUUGAGUACAGAUACUGUGAGCUUACAUUGA,1.34
GGGCGGCCCGUGGGGGAAUUCCCUGCCUUGGCCUUACCUCCCCUUCCUGCCACUUGCCCCUAGUUUUUUUUUUUUUUUUACCACCAUGUGAUUAAGGUCGGCUCUGCCUCCCCCGACCCA,9.32
AUCUCCAUAAUAACCUGGGAUUUUCAAAGACAGGAAGCUUUUUUUUUUUUUUUUUAACAGUUUAGUACUUGGUUUCUACGAGGAGGACUAAACUCAUGCUUAUAGCUACAUGUGGUCUUC,0.591
AUUGAACAAAAAUAUUUCCACUGGCUUUUGCCUGUAAGAAAAAAAAUGUACCCGAGCACAUAGAGCUUUUUAAUAGCACUAACCAAUGCCUUUUUAGAUGUAUUUUUGAUGUAUAUAUCU,0.691
AGUAUCCCAGUUGUACCGUGUUGGGUUGGCAUUGUACAGAAAUUAACAGCCAUAUUGGUCUAGAAAUGUUAAACAUAAUUUUUUCCAUUUGUACAGGGGUAACGCACUGUAUUAAAUAUG,0.832
GUGACUUUGGAAGUCCGCACAGUGUCAGUGCAGAUACUACUUAGUCCGGGGCCUGGUGGCUGGGCUCAUUUUCUUCUUUCCAAUCUGAGGUCUCUGCCACAAACAUGCUCCGCCACAUCU,0.456

# Set 3 — target: CCNE1, cyclin fold, Cln2 fusion (human); method: yeast growth competition, sequencing; medium: yeast; setting: weak parent motif; relative to: not given; direction: higher = stronger binding
# Starting sequence: RB1 docking peptide (human); PKPLKKLRFDIEG
Change,normalised enrichment score
PKPLKKLRFDIMG [E12M],0.466
PKELKKLRFDIEG [P3E],0.317
PKPLKKQRFDIEG [L7Q],-0.535
PKPLKKLRDDIEG [F9D],-0.0302
PKPLKKERFDIEG [L7E],0.171
PKPLKKLRFDILG [E12L],0.826
PKPLKKLRFNIEG [D10N],0.227
PKPLKKLRLDIEG [F9L],0.441
PKPDKKLRFDIEG [L4D],1.04
PKPLKELRFDIEG [K6E],-0.453
MKPLKKLRFDIEG [P1M],0.026
PKPLRKLRFDIEG [K5R],0.138
PKPLIKLRFDIEG [K5I],0.112
PKPLKFLRFDIEG [K6F],1.08
PKPLKKLRFDMEG [I11M],0.0297
PKPLKALRFDIEG [K6A],0.328
PKPLRKLRLDIEG [K5R F9L],-0.138
PKPLKKLYFDIEG [R8Y],0.281
PKPLKHLRFDIEG [K6H],0.389
DKPLKKLRFDIEG [P1D],1.33
PKPLKKLNFDIEG [R8N],0.336
PKPLKKLRFCIEG [D10C],0.417
PKPLKKLQFDIEG [R8Q],0.071
PKPLKKLRFLIEG [D10L],0.319
PKPLKKLRFDIEN [G13N],0.178

# Set 4 — target: NFE2L1, bZIP domain (human); method: DHFR protein complementation; medium: yeast; relative to: wild-type JUN-FOS pair; direction: higher = stronger binding
# Setting: single substitutions, most at no-binding floor
# Starting sequence: JUN, bZIP domain (human); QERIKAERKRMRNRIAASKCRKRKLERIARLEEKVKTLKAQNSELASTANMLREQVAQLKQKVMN; partner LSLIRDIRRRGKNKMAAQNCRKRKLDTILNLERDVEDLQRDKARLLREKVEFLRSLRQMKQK
Change,binding fitness
A40C,-1.58 natural log
L52R,-1.53 natural log
M51H,-1.41 natural log
L52A,-1.45 natural log
M51D,-1.39 natural log
A49L,-1.41 natural log
K39N,-1.39 natural log
K36I,-1.55 natural log
E44G,-1.46 natural log
E44S,-1.52 natural log
K39E,-1.35 natural log
K39A,-1.44 natural log
S47F,-1.34 natural log
Q55P,-1.47 natural log
I28S,-1.42 natural log
I28E,-1.56 natural log

# Set 5 — method: DHFR PCA, deep sequencing; medium: yeast; with: (+)-ABA 17 µM; relative to: wild-type fitted maximum; direction: higher = stronger binding
# Target: ABI1, truncated, D143A, DHFR fusion (Arabidopsis thaliana)
# Setting: methotrexate growth selection, single substitutions
# Starting sequence: PYL1, truncated, DHFR fusion (Arabidopsis thaliana); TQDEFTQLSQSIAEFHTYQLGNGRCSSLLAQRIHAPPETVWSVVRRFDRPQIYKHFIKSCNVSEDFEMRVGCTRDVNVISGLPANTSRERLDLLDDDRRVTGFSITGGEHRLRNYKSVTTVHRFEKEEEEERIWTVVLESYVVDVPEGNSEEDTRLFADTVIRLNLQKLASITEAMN; partner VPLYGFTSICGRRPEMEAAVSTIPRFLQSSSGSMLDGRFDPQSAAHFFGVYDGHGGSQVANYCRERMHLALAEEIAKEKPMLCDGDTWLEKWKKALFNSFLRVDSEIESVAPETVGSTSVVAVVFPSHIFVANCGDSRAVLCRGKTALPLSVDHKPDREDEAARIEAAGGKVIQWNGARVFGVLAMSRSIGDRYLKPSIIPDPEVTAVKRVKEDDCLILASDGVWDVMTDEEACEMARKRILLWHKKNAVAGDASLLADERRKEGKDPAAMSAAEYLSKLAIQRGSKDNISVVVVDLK
Change,relative binding score [%]
E139F,5.98
D95T,-3.38
E130P,98.7
V40C,12.8
T39H,76.8
N114D,50.8
G23N,81.6
A84H,27.2
P146Q,10.2
V161F,70.4
V44I,70.8
T154G,-4.61
L93M,72.9
F157L,66.2
E38K,38.3
G107V,-5.59
Q167I,66.4
R123G,98

# Some of these lines once more (set 2):
Sequence,bound/input enrichment [ratio]
GGGGCGGCCGGUGGGGGAAUCCCAUGCCCUGGCCGGCCACCCCUCCCUGCUACCCGCUCCUAGUUUUUUUUUUUUUUAACCACCAUGUGAUUAAGGUCGGCGCUGCCUCCCCCGACCCGC,5.88
CUGCAGAUUCUCUCAUAGGGAGAGCUGCACACAUUGCUGUUCUUGAUUCAGAAAUAUUUUUAGAAAAAUUCUUUCUUGUUGCUGCCCUGAAAUAUUUUCAGUAGAGAAUAGCAUUCUAAG,0.268
AUCUCCAUAAUAACCUGGGAUUUUCAAAGACAGGAAGCUUUUUUUUUUUUUUUUUAACAGUUUAGUACUUGGUUUCUACGAGGAGGACUAAACUCAUGCUUAUAGCUACAUGUGGUCUUC,0.591
CCCUCUGAACCCCAUAUCUUCUGUUUCAUAAUGCAGAAGUAUUCUUUUCAAUUAUAUUGUUAGUGGACUUCUUUUAAUUUUAGAGAAACUUUGAGUACAGAUACUGUGAGCUUACAUUGA,1.34
GGGCGGCCCGUGGGGGAAUUCCCUGCCUUGGCCUUACCUCCCCUUCCUGCCACUUGCCCCUAGUUUUUUUUUUUUUUUUACCACCAUGUGAUUAAGGUCGGCUCUGCCUCCCCCGACCCA,9.32
UCCCAGCACUUUGAUAAAAAGUGUGGACUGGCUGCUCGUAUUUUCCUUAUUCUUUUUAAUUAGUUUUAUUAUGUACGCUACCAUUCGAACGGAGAGUAUUCGGUGGCUAAUUCCGGGACA,1.69
AGUAUCCCAGUUGUACCGUGUUGGGUUGGCAUUGUACAGAAAUUAACAGCCAUAUUGGUCUAGAAAUGUUAAACAUAAUUUUUUCCAUUUGUACAGGGGUAACGCACUGUAUUAAAUAUG,0.832
